Published values pooled from the literature.
Lines come from different studies, so protocols differ.
BRSK1: Serine/threonine-protein kinase BRSK1 (BRSK1, Homo sapiens, UniProt Q8TDC3)
Chain of UniProt Q8TDC3 (whole entry, looked up): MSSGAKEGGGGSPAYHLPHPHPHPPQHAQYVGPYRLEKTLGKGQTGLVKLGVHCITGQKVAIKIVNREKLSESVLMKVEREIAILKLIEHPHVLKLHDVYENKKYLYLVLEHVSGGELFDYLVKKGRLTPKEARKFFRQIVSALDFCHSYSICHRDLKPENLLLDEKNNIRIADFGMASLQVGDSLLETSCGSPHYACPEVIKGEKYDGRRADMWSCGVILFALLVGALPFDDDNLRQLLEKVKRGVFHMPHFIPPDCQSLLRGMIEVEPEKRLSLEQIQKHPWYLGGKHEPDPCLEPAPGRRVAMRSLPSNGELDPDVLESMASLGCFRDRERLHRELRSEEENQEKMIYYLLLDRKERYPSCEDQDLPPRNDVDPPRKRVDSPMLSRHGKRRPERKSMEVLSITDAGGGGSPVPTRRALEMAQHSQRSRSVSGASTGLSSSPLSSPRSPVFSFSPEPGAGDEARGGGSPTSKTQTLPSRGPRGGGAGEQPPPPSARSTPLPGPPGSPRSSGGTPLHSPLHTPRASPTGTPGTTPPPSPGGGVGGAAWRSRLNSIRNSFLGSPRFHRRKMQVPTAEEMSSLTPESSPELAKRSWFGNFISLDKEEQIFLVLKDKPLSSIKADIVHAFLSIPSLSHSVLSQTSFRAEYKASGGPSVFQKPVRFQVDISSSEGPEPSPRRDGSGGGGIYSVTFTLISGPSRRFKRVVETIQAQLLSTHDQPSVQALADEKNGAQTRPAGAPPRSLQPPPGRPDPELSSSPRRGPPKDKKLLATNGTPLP
Chain of UniProt P54760 (whole entry, looked up): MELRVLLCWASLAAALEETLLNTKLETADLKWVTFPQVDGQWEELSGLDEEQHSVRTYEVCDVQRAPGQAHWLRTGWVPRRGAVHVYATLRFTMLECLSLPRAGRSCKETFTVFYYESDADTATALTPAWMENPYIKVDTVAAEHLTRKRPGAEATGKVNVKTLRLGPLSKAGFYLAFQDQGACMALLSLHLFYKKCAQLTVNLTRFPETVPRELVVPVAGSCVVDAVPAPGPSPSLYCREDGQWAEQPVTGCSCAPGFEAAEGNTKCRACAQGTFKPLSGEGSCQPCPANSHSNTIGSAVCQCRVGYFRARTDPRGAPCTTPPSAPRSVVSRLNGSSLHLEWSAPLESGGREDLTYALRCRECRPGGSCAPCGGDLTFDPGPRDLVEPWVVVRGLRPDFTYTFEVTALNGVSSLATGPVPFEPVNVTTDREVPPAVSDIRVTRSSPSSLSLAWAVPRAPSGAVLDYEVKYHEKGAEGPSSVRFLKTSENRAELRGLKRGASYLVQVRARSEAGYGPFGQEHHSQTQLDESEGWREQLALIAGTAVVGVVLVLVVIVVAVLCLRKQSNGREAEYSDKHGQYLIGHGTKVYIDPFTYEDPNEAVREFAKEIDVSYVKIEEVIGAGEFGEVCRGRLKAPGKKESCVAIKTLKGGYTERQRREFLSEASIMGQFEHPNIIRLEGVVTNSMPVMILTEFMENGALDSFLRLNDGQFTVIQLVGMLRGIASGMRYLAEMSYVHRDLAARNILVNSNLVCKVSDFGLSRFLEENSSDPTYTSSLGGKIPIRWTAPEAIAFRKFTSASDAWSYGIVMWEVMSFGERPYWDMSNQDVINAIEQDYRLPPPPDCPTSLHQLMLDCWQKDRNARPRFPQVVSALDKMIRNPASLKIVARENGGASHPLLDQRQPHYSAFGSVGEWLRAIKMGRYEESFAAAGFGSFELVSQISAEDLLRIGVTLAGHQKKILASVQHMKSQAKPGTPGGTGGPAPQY
Chain of UniProt Q7L7X3 (whole entry, looked up): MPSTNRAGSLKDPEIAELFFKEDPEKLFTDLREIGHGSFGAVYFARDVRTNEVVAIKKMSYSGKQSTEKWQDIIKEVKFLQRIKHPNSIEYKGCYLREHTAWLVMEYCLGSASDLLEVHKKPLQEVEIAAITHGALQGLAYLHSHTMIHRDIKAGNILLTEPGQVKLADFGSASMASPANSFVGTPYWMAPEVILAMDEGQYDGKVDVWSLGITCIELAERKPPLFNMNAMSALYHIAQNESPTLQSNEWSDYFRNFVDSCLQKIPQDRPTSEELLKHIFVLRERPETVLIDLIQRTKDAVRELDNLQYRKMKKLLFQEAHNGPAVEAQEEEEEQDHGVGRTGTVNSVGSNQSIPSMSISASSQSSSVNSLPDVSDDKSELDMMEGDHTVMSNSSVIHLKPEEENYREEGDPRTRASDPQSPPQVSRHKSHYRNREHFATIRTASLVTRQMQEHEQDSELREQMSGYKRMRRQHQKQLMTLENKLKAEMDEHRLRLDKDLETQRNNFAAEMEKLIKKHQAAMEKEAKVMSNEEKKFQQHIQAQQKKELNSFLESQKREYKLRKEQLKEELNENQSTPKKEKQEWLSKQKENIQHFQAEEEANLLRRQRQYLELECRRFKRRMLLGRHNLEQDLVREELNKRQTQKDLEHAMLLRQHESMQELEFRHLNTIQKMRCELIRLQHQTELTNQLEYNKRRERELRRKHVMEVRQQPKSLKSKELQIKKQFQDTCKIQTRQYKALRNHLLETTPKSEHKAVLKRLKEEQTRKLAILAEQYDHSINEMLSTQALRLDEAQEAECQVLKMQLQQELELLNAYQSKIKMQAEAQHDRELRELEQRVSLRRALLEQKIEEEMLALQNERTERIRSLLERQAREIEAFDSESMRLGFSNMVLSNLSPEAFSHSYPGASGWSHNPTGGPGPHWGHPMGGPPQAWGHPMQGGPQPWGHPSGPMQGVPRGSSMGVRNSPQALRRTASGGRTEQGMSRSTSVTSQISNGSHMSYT
Chain of UniProt Q01959 (whole entry, looked up): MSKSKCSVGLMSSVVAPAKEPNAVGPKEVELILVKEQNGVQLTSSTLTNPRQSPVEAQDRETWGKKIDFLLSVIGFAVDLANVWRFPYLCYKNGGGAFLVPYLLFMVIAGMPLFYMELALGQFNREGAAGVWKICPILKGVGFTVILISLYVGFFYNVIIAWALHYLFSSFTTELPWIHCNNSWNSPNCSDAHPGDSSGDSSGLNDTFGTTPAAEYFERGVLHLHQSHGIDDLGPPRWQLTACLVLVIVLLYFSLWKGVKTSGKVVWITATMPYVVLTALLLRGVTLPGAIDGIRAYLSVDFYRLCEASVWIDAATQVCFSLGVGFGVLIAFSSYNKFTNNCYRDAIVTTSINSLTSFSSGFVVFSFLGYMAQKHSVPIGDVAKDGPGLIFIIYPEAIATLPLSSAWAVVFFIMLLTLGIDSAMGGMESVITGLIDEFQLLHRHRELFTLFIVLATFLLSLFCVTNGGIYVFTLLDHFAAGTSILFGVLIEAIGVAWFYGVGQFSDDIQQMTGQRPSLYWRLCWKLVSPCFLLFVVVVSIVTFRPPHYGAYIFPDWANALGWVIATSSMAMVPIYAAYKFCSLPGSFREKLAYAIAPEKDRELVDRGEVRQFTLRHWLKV
Chain of UniProt Q02779 (whole entry, looked up): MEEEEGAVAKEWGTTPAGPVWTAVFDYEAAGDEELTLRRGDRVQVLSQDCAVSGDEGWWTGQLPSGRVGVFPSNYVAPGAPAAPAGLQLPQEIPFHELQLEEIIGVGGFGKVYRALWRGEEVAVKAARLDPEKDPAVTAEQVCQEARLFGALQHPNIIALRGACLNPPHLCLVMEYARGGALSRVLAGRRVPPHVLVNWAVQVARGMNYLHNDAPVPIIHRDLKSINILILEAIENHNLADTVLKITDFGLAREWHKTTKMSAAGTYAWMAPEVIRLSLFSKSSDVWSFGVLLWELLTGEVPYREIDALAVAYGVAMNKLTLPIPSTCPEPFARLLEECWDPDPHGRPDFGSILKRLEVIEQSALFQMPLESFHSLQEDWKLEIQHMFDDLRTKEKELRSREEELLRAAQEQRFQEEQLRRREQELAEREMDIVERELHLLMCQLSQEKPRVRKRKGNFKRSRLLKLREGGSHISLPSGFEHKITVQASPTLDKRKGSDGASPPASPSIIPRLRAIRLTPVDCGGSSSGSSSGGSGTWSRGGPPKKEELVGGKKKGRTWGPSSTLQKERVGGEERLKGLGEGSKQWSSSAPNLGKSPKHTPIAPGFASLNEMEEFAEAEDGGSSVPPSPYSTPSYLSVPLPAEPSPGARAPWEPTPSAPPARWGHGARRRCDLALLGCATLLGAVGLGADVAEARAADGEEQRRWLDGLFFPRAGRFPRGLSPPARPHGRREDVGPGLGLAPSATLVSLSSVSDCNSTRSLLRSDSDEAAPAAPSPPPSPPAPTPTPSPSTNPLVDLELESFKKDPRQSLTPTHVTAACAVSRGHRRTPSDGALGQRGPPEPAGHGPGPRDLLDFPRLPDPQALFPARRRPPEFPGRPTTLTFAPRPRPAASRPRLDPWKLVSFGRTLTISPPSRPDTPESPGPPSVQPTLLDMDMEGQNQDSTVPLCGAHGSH
Chain of UniProt P57058 (whole entry, looked up): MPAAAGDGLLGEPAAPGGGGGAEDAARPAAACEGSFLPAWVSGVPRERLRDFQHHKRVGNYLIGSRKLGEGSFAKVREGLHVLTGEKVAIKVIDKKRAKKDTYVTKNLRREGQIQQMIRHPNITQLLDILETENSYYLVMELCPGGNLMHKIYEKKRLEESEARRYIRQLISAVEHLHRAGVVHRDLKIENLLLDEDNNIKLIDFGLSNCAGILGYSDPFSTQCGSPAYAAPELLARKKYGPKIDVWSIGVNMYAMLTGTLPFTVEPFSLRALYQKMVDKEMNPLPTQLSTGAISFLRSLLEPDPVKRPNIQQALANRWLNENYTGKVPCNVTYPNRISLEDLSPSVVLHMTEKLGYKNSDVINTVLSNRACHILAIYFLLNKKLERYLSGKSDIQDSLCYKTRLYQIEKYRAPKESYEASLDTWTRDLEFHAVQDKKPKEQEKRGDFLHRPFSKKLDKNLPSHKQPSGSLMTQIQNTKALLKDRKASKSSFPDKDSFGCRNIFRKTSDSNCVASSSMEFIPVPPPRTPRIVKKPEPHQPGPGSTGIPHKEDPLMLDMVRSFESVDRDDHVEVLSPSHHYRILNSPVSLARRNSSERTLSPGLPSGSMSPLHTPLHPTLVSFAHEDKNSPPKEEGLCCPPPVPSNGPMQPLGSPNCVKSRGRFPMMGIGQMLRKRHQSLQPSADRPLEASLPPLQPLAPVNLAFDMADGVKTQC

SMILES	target	test	setting	how to read	remaining activity [%]
COc1cc(Nc2ncc3c(n2)-c2ccc(Cl)cc2C(c2c(F)cccc2OC)=NC3)ccc1C(=O)O	HCK	kinase activity	1 µM		11
COc1cc(-c2cncc3c2CN(C)Cc2cc(N4CCNCC4)ccc2-3)cc(OC)c1OC	Mitogen-activated protein kinase kinase kinase 10 (MAP3K10, Homo sapiens, UniProt Q02779)	kinase activity	1 µM, human enzyme, added: ATP 10 µM	baseline: DMSO control	117
N[C@@H]1CC[C@@H](c2ccc(Cl)c(Cl)c2)c2ccccc21	Sodium-dependent dopamine transporter (SLC6A3, Homo sapiens, UniProt Q01959)	dopamine uptake	0.002 µM, 0.03333 h, added: [3H]dopamine	baseline: no inhibitor	11.2
O=C(O)c1ccc(Nc2ncc3c(n2)-c2ccc(Cl)cc2C(c2c(F)cccc2F)=NC3)cc1	Rse(h)	kinase activity	1 µM		56
COc1cc(N2CCN(C)CC2)ccc1Nc1nc(N)n(C(=S)NCc2c(Cl)cccc2Cl)n1	Insulin receptor (INSR, Homo sapiens, UniProt P06213)	enzyme activity	10 µM	baseline: control	0
CNc1ncc2c(/C=C/C(=O)N3CCC(OC)CC3)nn(Cc3cccc(C(F)(F)F)c3)c2n1	BRSK1	kinase activity, inhibitor	1 µM	baseline: untreated control	96
C=CC(=O)N1CCC[C@@H](n2nc(-c3ccc(Oc4ccccc4)cc3)c3c(N)ncnc32)C1	Receptor tyrosine-protein kinase erbB-2 (ERBB2, Homo sapiens, UniProt P04626)		0.1 µM		114
O=C(NC1CCC1)c1ccc2nc(-c3cccc(NS(=O)(=O)NCCN4CCCCC4)c3)cn2c1	Hormonally up-regulated neu tumor-associated kinase (HUNK, Homo sapiens, UniProt P57058)	enzyme activity	10 µM		94
COc1cc(F)ccc1-c1ncnc(Nc2cccc(C[S@](C)(=N)=O)c2)n1	Serine/threonine-protein kinase TAO1 (TAOK1, Homo sapiens, UniProt Q7L7X3)	kinase activity	10 µM, added: 10 µM ATP		83
Cc1cc(Nc2cc(N3CCN(C)CC3)nc(Sc3ccc(NC(=O)C4CC4)cc3)n2)[nH]n1	Ephrin type-B receptor 4 (EPHB4, Homo sapiens, UniProt P54760)	kinase activity, KinaseProfiler	0.03 µM, species human	baseline: control	93
O=C1NC(=O)/C(=C/c2ccc(-c3ccc(F)cc3O)o2)S1	BRSK1	enzyme activity	10 µM		56

Some of these lines once more:
SMILES	target	test	setting	how to read	remaining activity [%]
CNc1ncc2c(/C=C/C(=O)N3CCC(OC)CC3)nn(Cc3cccc(C(F)(F)F)c3)c2n1	BRSK1	kinase activity, inhibitor	1 µM	baseline: untreated control	96
COc1cc(-c2cncc3c2CN(C)Cc2cc(N4CCNCC4)ccc2-3)cc(OC)c1OC	Mitogen-activated protein kinase kinase kinase 10 (MAP3K10, Homo sapiens, UniProt Q02779)	kinase activity	1 µM, human enzyme, added: ATP 10 µM	baseline: DMSO control	117
